Published values pooled from the literature.
A part holds a random share of what one study measured.

Block 1 — method: RNA Bind-n-Seq; form: RNA; matrix: in vitro; tested at: 365 nM; reference: no-protein control; reading: higher = stronger binding
Target: RNA binding protein fox-1 homolog 2, RRM domain, GST-SBP tag (RBFOX2, Homo sapiens, UniProt O43251-10, residues 100-194)
Notes: natural RNA segment, single round, ends assumed
Constant ends, left off below: GGGAGUUCUACAGUCCGACGAUC … UGGAAUUCUCGGGUGCCAA
Residues (chain): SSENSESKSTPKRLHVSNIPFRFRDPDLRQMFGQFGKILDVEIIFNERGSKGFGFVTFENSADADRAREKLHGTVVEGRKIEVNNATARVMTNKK
`CUCAGCCUGCCUGAAGAGAGGAAACUGGCGAUCUCCCAGGGCUCUCUGGACCAUACGCGGAGGAGUUUUCUGUGUGGUCUCCAGCUCCUCUCCAGACACAGAGACAUGGG` — result for “RBNS enrichment (R)”: 0.415.
`ACCACUCCAGUGCAUUUCCGCCUGGCUCCUAGAAGCCCCAUUCAAUAUCACUACUCUUUAACGAGUGCCAAAUCUUUUCCCACUUUUGCUCUUCCCCAAGGAACUGCUCC` — result for “RBNS enrichment (R)”: 0.45.
For `UAUUACCAUAGUGCGAUGUCGUUUUGUGCUAUUUUGAACAAUUAAAAGACUUUUUUUGAAAUAACCAUAGGUGUCUCACUGUGUCCCGGCAUCCUCUCAGGAAGCCUGAG`, “RBNS enrichment (R)” read 0.293.
Under “RBNS enrichment (R)”, `AGUCCUUGUAGCCCAAUGGGAAUUGAUUCUGUUUAUUGUCUGUACCAUUUUGCUACCAGUUACAUUGAACUGCUUUAAAAUAAAUAAUAAAAUUAUUUCUAAUGAUGAAA` is recorded as 0.611.
Under “RBNS enrichment (R)”, `UCUAGUCUAAGUAAGAAUGUCUUUUGCCUGCGCGUGGAGGCACAGUAGAAAUCUCAAGGCUUUACCCAGAAGAGCCCAGUCAGGGAGAGGUGUAAAUGCAAAAUUGCCAA` is recorded as 4.63.
Under “RBNS enrichment (R)”, `UGUCAUGUCAUUAACAGAACUGAAAUAUUCUAUUGUAAGACGUGCAUUUGCGGUUAGAAUGGUCUUGUUGCCUAAACUGUCUAAAAUUCUAAUAAAAUAACUUUCUAAGA` is recorded as 0.582.
`GGAGCAGGGACAGACAUCUGUUGGUAUUGCCCAGCUCCUGUAUCUGUGAUACAUUCCCUGGCUGAGGACUCGGGGCUGGCCUGGGCAUUUGCCUGGACUGCUGGAAACAC`: “RBNS enrichment (R)” 0.253.
`CAUAUACUGGGUAUCCAAGCUCUGGGAAGUUAUCCUACCAGGCCCUGAUCUGUUGAUAAGGCACUAUACACCAUGCUGGUGUGUUCUGUAGCCUUGUGCCCAUUAGGUAA` — result for “RBNS enrichment (R)”: 0.254.

Block 2 — method: competition protein-binding microarray; form: double-stranded DNA, one strand shown; matrix: in vitro; tested at: 2 µM; with: Pho4 competitor, 0.05 µM; reading: higher = stronger binding; constant ends, left off below: … GTCTTGATTCGCTTGACGCTGCTG
Target: Centromere-binding protein 1, full length, His-tagged (CBF1, Saccharomyces cerevisiae, UniProt P17106, residues 1-351)
Chain of UniProt P17106 (whole entry, looked up): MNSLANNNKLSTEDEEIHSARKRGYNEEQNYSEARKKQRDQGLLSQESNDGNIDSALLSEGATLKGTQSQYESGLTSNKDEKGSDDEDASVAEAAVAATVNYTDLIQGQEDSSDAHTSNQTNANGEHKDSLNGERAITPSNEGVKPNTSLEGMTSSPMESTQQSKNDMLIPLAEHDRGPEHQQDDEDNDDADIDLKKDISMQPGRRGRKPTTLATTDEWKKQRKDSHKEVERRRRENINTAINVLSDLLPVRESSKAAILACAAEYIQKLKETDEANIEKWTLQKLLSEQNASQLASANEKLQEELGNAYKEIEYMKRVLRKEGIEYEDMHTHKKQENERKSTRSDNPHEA
Notes: whole 60-bp probe, lowest competitor level
The fluorescence intensity of `ACCCGCCCCTCGGGGCACGCGGTCTCCCGGCTTCTC` is reported as 61.9 a.u.
For `GAGCGGGATTCCCATCACGTGGTGATGGGATAATGC`, the fluorescence intensity was 3520 a.u.
The fluorescence intensity of `AAAGCGGTAATTTGGCCCGTGGGTGCAGATATCTAT` is reported as 73.2 a.u.
`AGTAATTGTACGATGCACGTGCAAAAAAAGTGCTCA` has a fluorescence intensity of 4140 a.u.
`ATATCTTCTAAATCGCACGGGTTCAAGATCGCAAAA` gave a fluorescence intensity of 148 a.u.
With `TGTTTAGAGAGTCTTGCCTTCAGGTTTAATATAGTC` the fluorescence intensity was 68.1 a.u.
For `TGCGCAACAACTTGAGACGTGGGTGTATGTCTAGAA`, the fluorescence intensity was 61.2 a.u.

Block 3 — method: RNA Bind-n-Seq; form: RNA; matrix: in vitro; tested at: not given; reference: input RNA pool; reading: higher = stronger binding
Target: RING finger protein unkempt homolog, zinc fingers 1-6, GST-SBP tag (UNK, Homo sapiens, UniProt Q9C0B0, residues 30-357)
Notes: RNA with constant flanks, human and mouse sites, ends assumed
Constant ends, left off below: GGGAGUUCUACAGUCCGACGAUC … CAACAGAGGAUUGAGCAUCA
Target sequence (chain): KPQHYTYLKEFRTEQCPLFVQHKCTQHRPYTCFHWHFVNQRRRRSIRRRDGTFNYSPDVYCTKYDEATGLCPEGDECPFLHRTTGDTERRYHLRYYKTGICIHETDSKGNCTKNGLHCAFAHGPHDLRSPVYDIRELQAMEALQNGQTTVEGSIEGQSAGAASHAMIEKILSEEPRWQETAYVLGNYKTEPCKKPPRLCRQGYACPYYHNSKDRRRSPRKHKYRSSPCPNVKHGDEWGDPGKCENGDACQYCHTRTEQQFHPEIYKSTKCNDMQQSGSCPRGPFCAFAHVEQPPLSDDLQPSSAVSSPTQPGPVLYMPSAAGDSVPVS
For `UUUGGUGCACAAAAUCCUUCUGUGGGCAAAACUUUGUUUUUGUUUUGCACAGUAAGAAACAAUAGGCAAGCGUUAUGUUUUUGGUAAGUUAACUAUGAAAGCUUUCUUAUUUUUAUUAUU`, the bound/input enrichment was 0.705 ratio.
The bound/input enrichment of `CUGAAUGAAGAUCUGGAGGUGAAAAUAGGGGAUUUUGGACUGGCAACCAAAGUCGAAUAUGACGGGGAGAGGAAGAAGACCCUGUGUGGGACUCCUAAUUACAUAGCUCCCGAGGUGCUG` is reported as 0.295 ratio.
The bound/input enrichment of `GUUCGAGCUAAAUUCAAAUUCUCUCUUCUCAAUGAUAAAAGGGAAGAAACAAAAGCAAUGGAAAGCCAAAGAGCAUAUCGAUUUGUACAGGGGAAGGACUGGGGAUUUAAAAAAUUCAUU` is reported as 0.34 ratio.
For `GUACCCCAUCGCGGUGCUCAUAGACGAACUCCGCAAUGAGGACGUUCAGCUUCGCCUCAACAGCAUCAAGAAGCUGUCCACCAUCGCCUUGGCCCUUGGGGUUGAAAGGACCCGAAGUGA`, the bound/input enrichment was 0.0614 ratio.
The bound/input enrichment of `CUACUGAUCCCUGUGAGCAACUCGGAGAUGGAAAAGGUGGACGGCUUGCUCACCUGCUGCUCCGUUUUUAUUAACAAGAAGAUAGACUCCUGAGCCAGAGAGUCCCUUCCCUGUGGCCAG` is reported as 0.119 ratio.
The bound/input enrichment of `UUAUUAGAAUCUAUACCUACACAUUCUGAUCAGGAAAAAGAAGUUAACAUUAAAAAACCAGAAGACAAUGAAAAUCUGGAUGACAAAGAUGAUGACACAACUAGGGUAGAUGAAUCCCUC` is reported as 0.443 ratio.
`CCUGGCAACCGAGCCCCCGAUCCCACAGAGAGUCGAAGUCUUCAUAUUCAGCACCCAGGGUAUAGAUAGGUAGCCCUGCUGCCCUCCACGUGCAACACAUCAUACAUCACCCUCCUAGGU` has a bound/input enrichment of 0.276 ratio.
`GCUUUUUAUCCUCAGUACCUCAGGCCCCCAUGUACUUGGUGGGACAGCAAACCCUUUCCUUGGUUUUGGCCUCCAGACUAAAGGGACAGGUCCCACCAACAGGUGCUCAGAGCCACCAAG` has a bound/input enrichment of 0.118 ratio.

Other studies, line by line
`PhoQ, residues 284 288 289 292 302 303 AGGCYF` has a fold induction of 1.44 (PhoP, residues 12 14 15 18 19 HEGLL (Escherichia coli, UniProt P23836); Sort-seq, measured: YFP reporter; E. coli; PhoQ-PhoP variant library, with: 10 µM Mg2+; reference: high Mg2+ state, higher = stronger signaling).

Some of these lines once more (block 2):
The fluorescence intensity of `ACCCGCCCCTCGGGGCACGCGGTCTCCCGGCTTCTC` is reported as 61.9 a.u.
For `GAGCGGGATTCCCATCACGTGGTGATGGGATAATGC`, the fluorescence intensity was 3520 a.u.
The fluorescence intensity of `AAAGCGGTAATTTGGCCCGTGGGTGCAGATATCTAT` is reported as 73.2 a.u.
